Published values of several laboratories.
Every numbered part comes from another study and shows a few of its results, in no order.

Study 1 — method: protein binding microarray; molecule type: double-stranded DNA, one strand shown; matrix: in vitro; concentration: not given; reference: not given; reading: higher = stronger binding
Target: Histone acetyltransferase KAT6A, both winged helices, GST fusion (KAT6A, Homo sapiens, UniProt Q92794, residues 1-181)
Setting: 8-mer, flanks averaged, mean of 2 arrays, mostly near background
Residues (chain): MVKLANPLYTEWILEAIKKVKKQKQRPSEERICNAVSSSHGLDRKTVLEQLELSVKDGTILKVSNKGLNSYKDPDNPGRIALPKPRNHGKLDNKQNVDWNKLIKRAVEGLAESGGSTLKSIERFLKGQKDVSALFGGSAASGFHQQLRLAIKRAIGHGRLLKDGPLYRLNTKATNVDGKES
Sequence	E-score
ACCATAGG	-0.109
GTATTCAA	-0.00247
GTTTTCCA	-0.0183
AAGCGCCC	0.275
AAGGTATT	0.05

Study 2 — method: protein-binding microarray; molecule type: double-stranded DNA, one strand shown; matrix: in vitro; concentration: 2540 nM top; setting: 60-bp whole probe; with: salmon DNA 0.4 mg/ml; reference: random background probes; reading: higher = stronger binding; constant ends, left off below: GCCTAGCAC … GTCTTGATTCGCTTGACGCTGCTG
Target: Interferon regulatory factor 3, full length, phosphomimetic (IRF3, Homo sapiens, UniProt Q14653, residues 1-427, S386D/S396D/S398D/S402D/T404D/S405D)
Construct (chain): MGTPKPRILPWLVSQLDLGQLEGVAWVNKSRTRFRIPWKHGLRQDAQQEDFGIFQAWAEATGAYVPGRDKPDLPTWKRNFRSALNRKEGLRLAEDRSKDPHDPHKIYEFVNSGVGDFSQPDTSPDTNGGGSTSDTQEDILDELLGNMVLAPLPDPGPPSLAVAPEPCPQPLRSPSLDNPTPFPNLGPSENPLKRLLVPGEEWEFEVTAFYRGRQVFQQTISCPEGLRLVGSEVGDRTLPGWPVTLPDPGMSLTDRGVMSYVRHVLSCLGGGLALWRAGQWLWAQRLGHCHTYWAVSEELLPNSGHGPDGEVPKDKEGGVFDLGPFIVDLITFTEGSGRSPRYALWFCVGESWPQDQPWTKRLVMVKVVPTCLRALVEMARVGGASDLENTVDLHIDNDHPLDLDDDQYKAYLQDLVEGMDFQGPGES
Sequence	fitted relative affinity
GACGATTTCGGGAATCGAGACGTGCTA	1.44 z-score
GACGATAACGGGTATCGAGACGTGCTA	-0.247 z-score
TCGTTTCCCAAGTTTATACCTGTGCTA	3.75 z-score
TTAGGTATCGGACGGGGTTAGTGCTAG	0.0119 z-score
TTAGGTTTCGGTCTCGGCTAGTGCTAG	8.65 z-score
TTAGGACTGGGGTATCGGTTGGTGCTA	-0.459 z-score

Study 3 — method: RNA Bind-n-Seq; molecule type: RNA; matrix: in vitro; concentration: 365 nM; reference: no-protein control; reading: higher = stronger binding
Target: RNA binding protein fox-1 homolog 2, RRM domain, GST-SBP tag (RBFOX2, Homo sapiens, UniProt O43251-10, residues 100-194)
Setting: natural RNA segment, single round, ends assumed
Construct (chain): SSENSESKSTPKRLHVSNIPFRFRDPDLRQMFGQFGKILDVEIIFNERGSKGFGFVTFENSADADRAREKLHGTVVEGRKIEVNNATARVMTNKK
Sequence	RBNS enrichment (R)
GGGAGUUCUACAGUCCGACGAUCGUUCAUCUUGUCUAUUUUUUCUCUUCAUGUUGUAACAAAAAGGAAAAAAGAAAAAAAAAUCCCAUCCCUUUUGUACAUAUGCCUGUAAAUUGUUUUAAAUACUUGAGCCUUGGAAUUCUCGGGUGCCAA	2.24
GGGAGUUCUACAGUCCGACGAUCCUCCGUCUCAAAAAAAGGGCAAUAAAUGCCCUCUCUGAAUGUUUGAACUGCCAAGAAAAGGCAUGGAGACAGCGAACUAGAAGAAAGGGCAAGAAGGAAAUAGCCACCGUUGGAAUUCUCGGGUGCCAA	0.966
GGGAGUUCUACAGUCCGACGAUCAAUCAACUAGAUUGACCUAGGUUAAAAUUUCAAAAGGCUCAUUUUCUCCCAAAGCUAAAUCUUUAUAUUAGGAACAAUUAAAUAUUGACUUAAGUUGUAAAAAUUGAGAGUGGAAUUCUCGGGUGCCAA	0.891
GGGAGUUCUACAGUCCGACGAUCGUUAAUAAGUCAUUAACCGCUCAGUACCAGAUGUGGCAAAUCUCAAGUGAUUGUGGACUCCUGGCUCAUCAACUCAUGCCCUCUUCCAUACCCUCAUGGCUUCACAGUCAUGGAAUUCUCGGGUGCCAA	0.523
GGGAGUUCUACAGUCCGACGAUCUAAUGAAUCCUGGGACAUACUGAUGACUAUAAACUGGCCUCUCUGAGUCAUAGAAAAAUGGCCUUAUUUCUCCAGAAGUGAGUAAACCACACUUCCAGGCUAUCUGAACUUGGAAUUCUCGGGUGCCAA	0.33
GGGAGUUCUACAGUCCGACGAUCAUACUUUGCUGAUCUUUAAGCUAUCCAUGGGGGAAAUUUUAUACCAACGAGUUAAUAAUUCUCAUUCAUCGUUUACACAAUGUAACAUGUGUCAUACUGGGGCCAGCGAGUGGAAUUCUCGGGUGCCAA	0.503

Further values, each from its own experiment
Substance	target	assay	system	setting	scale	endpoint	result
PhoQ, residues 284 288 289 292 302 303 SSYNSA	PhoP, residues 12 14 15 18 19 SHWTV (Escherichia coli, UniProt P23836)	Sort-seq, item: YFP reporter	E. coli	PhoQ-PhoP variant library, with: 10 µM Mg2+	reference: high Mg2+ state, higher = stronger signaling	fold induction	2.13

Excerpt of the above (study 1):
Sequence	E-score
GTTTTCCA	-0.0183
AAGCGCCC	0.275
AAGGTATT	0.05
